# Assay results from different studies.
# Numbered parts are unrelated; each lists some results of a single study.

# Study 1
# Target: RING finger protein unkempt homolog, zinc fingers 1-6, GST-SBP tag (UNK, Homo sapiens, UniProt Q9C0B0, residues 30-357)
# Method: RNA Bind-n-Seq
# Molecule type: RNA
# Matrix: in vitro
# Concentration: not given
# Notes: RNA with constant flanks, human-mouse chimeric sites, ends assumed
# Reference: input RNA pool
# Direction: higher = stronger binding
# Shared flanks, not repeated: GGGAGUUCUACAGUCCGACGAUC … CAACAGAGGAUUGAGCAUCA
# Residues (chain): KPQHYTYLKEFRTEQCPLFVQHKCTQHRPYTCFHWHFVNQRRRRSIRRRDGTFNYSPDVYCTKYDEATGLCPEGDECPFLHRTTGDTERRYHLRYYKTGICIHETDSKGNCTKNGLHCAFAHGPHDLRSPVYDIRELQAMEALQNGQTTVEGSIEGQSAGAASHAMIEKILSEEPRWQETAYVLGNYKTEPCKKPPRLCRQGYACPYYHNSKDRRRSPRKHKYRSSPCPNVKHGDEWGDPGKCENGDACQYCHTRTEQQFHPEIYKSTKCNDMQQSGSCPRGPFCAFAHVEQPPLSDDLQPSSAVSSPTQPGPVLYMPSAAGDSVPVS
Strand,bound/input enrichment [ratio]
AAAGCCCAAGUAUUUUGAAAAAACUCGAACAGAUUUGACAAGGGUAGCCAGCUUGGAGUCUAGCAACUUUGCCAAUGGUUUACCAAUCUGGGGGCUUGUUUUUCUUUCCCUUCCUUAAAU,0.282
UCAAGGGCACGAGCAUCAGCCAUGCCUUUCCUUGACAUACAGAAAAAGCUGGGCAUCAGCCUGGACCGGCACUUUAUGUUCCUAAGCGCAGAACAGCCCUAUAAGAACGCCGCUCGGUGC,0.0934
GAAAGAGAACUAAAGCAACUAAUAGAGGAAGAGGAUUGCAAAGAGAAUUUCAUAGAGAAACUAGGAUUUAUUAGCAAACAUGAGUUAUAUUCCAGAGCGUCUCAGAAACCCCAGCCAAAC,6.64
UCUUAACUUAUUCAUUUAACUUAUUUUUAUAGCUAGAUAAAUAUUGUUAGUCUUAGACAAUAGCUCACAUCUUUACAAAAGCAUGCUCUCCCUGUCCAUUUGUCUUAUAACAUGACCCAG,18.2
AACAGAUUGUCUUUAAGCAUUCCAAGCGAGAAUGCUGGGGUGAUCAUUGUUGCCCAUGUGCCUUCUGACUGAGCUUUAAUGCUGUUCAUCCUUGAUGUGAUGUUCUUCUCCAGAAUUGUU,0.159
GGGUGGGUGGUCAUUGCCGUUUGAGCUGCUGAUUUUCAUGAGUCGCCUUCAAAACUCUCGUGUAGGGUUGACAAUGUAAGGGGUGGGGGGAUCCAGCUUAUUCUUUUAUUUUCAAGUCCA,0.425
GAGCGUCUCGCUCGAACUGGGAUCAUCGUGACCACUAGUGAGGCUGUCCUCCUACAGCUGGUGGCUGACAAAGACCACCCGAAGUUCAAGGAAAUUCAGAACCUAAUUAAGGCGAGUGCC,0.139
CGCUGGCCCAAGCUGAUGGACUCUGAUGGCCUCCAUCUCUCAGGCACGUGUGCCUUCUCUUAGUCCCUGUUUUCGGGAUGUUAUGAACAGUAUCAUGGUUUGACAGAAGCACCAGCUUUG,0.136
GUAUUUGUGCGCUCCCCACUCGUGUUUUUAAGUGUAUAAGAUGUAUAUACAUGUAUUUACAAUUGAGCUUUUGUUACAUAAUGCUGAAAUGCUACUGGAGAUUAUGAAAAAUGUUUCAAU,0.152
UUUGUAUUUAUGCUAAGCACACGUGCUGGUGGUCUGGGCAUCAAUCUUGCAACUGCUGAUGUAGUCAUUUUAUAUGAUUCUGAUUGGAAUCCGCAAGUUGAUCUUCAGGCUAUGGACCGU,0.175
UCGGAUGCUGUGCUGGGUCACUUUUCAUAUCCAGAUCCUUCACAGUGGACAGAUGAAGAACUGGGAAUCCCUCCUGAUGACGAGGACUGAAGGUGUAAACUCUCUGGCACUCUGUACGCA,0.351

# Study 2
# Target: Histone acetyltransferase KAT6A, both winged helices, GST fusion (KAT6A, Homo sapiens, UniProt Q92794, residues 1-181)
# Method: protein binding microarray
# Molecule type: double-stranded DNA, one strand shown
# Matrix: in vitro
# Concentration: not given
# Notes: 8-mer, flanks averaged, mean of 2 arrays, mostly near background
# Reference: not given
# Direction: higher = stronger binding
# Target sequence (chain): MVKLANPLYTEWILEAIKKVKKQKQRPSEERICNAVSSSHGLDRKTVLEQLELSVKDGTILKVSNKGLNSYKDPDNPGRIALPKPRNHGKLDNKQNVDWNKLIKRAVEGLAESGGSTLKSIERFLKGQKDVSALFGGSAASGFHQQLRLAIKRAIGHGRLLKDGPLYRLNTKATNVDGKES
Strand,E-score
CACCTAAC,-0.113
AAACTGAC,-0.0638
ATGTTTAG,-0.0422
CCGTCGGC,0.42
ACAACCAT,-0.0688
CCGGACGC,0.286
AAGTGGAA,-0.176
TAGAGCAA,-0.156
AATCTTCT,-0.0606
CTCCACCC,-0.183
GTGAGCGA,-0.0764
CCTAGATA,-0.199
AGGTCACA,-0.0573
ATGGTGCA,-0.12
CTACGAAA,-0.0993
CCTCGTGA,-0.112
GGACTGCA,-0.131
GACACGAC,-0.0246
CAGCCCTC,-0.239

# Study 3
# Target: RNA binding protein fox-1 homolog 2, RRM domain, GST-SBP tag (RBFOX2, Homo sapiens, UniProt O43251-10, residues 100-194)
# Method: RNA Bind-n-Seq
# Molecule type: RNA
# Matrix: in vitro
# Concentration: 365 nM
# Notes: natural RNA segment, single round, ends assumed
# Reference: no-protein control
# Direction: higher = stronger binding
# Shared flanks, not repeated: GGGAGUUCUACAGUCCGACGAUC … UGGAAUUCUCGGGUGCCAA
# Construct (chain): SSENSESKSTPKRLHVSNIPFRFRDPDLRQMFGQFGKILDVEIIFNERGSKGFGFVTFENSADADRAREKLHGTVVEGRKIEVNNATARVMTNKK
Strand,RBNS enrichment (R)
GCAAGGAACGUGUCCGCAUGGCCUCUCAGCUUGGUAUGUGAAAAGGAAAUAGCAUACUUUUUCAAAAAUAAAUAAAUAAAAAUGGCAUCUCUGAAAAUCCCAUUCUUUGA,3.24
UGUGAACGUGUGAACGUUAACACUGUAGUUGCUAGAUCUUAAGCUGCUAAUUGUCGAGAGAGAAUUCAGUUGUGUGCUGUCUGGCUGCUGUGCCUUCUCAGCAGCACUUU,0.557
ACCAUUCUCUCCUCAUCAGAUUUCUGUUCUUUAUUUGACUUCAUUGACAUAUACCCUGGUGACUAUAACCAGUGAACUGUUCAGAGUCAGUCUUUUCGGCAAGAACUUCA,0.327
UGGUGUGCAUGGGCACAUGUACUGACUAUGACUGUCGGUGUGUGUUGUUAUACAGUCCAGGAACUGGUAAGUGCCCUCACCAGCGAGCAUGGCAGGUAGCUUCACUCAGU,1.33
UCAUCCCCAGCUGCCUAAGCUAGGGACACUCAAGUGCUUCCUUCCUUGCCCCAUCUUCCUCCCAACUGGAGGCCUCUGAGCCUCCCCUGUGCCUUGGGCCCUGAAGCCCC,0.519
UUUAAAACAUAGGAAAGUAGAAUGGUUGAGUGCAAAUCCAUAGCACAAGAUAAAUUGAGCUAGUUAAGGCAAAUCAGGUAAAAUAGUCAUGAUUCUAUGUAAUGUAAACC,0.66
UUUGACUUGCAUCUGAGAGUUUCUUGUUUCAGUAAAAAAAGAAAAGACAAAAAAAUCAGCUUUGGAAAGUAAUUUAAAUGUACCUUAUUUUUUUUUUCUUUAUGUUUUCU,2.5
GGGAUCCUUAGGCUCAGCUGUCUGUCUAAUCCCAGAGCUAAGCCCUUUCUGCUUCGGGCAGCCUGGACUCCAGCCCUGAGUAUAGAGGCGGUGUGGAUGGCUGGCCCUCA,0.553
ACCGACAGCCCUUCUCUGCGGUUGUCUGACUGGACACACUUCCUGAAAUCAGGCCGUUUCCCUCCGCGUGCAUUGGUUUUGGUCUGUCUUUCAGUUCUGUUUCAAACUAG,0.62
UGCCUGCCAGCCAGCAGCCCCUCAGGAAUGCUUCUAUAAUAGAUCCAGUAAUGAAAGCAGCACCAUAUCCUAAUCUAAUGUCAGCUUCGAGAAUGAAGACUGCAGUCAGG,0.506
UUUGGAAUUUUGUCUUCUUUAGCUGAGACCAAAUUAAACCUUGGUGCAUAAAGUGAGCUUAAAACUUGCCACUGUUUAGUAAGUUAGCCCCCAUAGAAUGUGACCCUGUC,0.37
UUGCUUCUCUCAAUACAAUAAGACAUUGCAGAAGCAAAAGGGUGGCCUCUGCUCCAGGCAAGGCAGCUGGCUCUGUCUGGGGCAUCGGCCUGGGGCUUGGGUGCCACGUG,0.43

# Study 4
# Target: Ras GTPase-activating protein-binding protein 1, RRM domain (G3BP1, Homo sapiens, UniProt Q13283)
# UniProt Q13283, sequence (whole entry, looked up): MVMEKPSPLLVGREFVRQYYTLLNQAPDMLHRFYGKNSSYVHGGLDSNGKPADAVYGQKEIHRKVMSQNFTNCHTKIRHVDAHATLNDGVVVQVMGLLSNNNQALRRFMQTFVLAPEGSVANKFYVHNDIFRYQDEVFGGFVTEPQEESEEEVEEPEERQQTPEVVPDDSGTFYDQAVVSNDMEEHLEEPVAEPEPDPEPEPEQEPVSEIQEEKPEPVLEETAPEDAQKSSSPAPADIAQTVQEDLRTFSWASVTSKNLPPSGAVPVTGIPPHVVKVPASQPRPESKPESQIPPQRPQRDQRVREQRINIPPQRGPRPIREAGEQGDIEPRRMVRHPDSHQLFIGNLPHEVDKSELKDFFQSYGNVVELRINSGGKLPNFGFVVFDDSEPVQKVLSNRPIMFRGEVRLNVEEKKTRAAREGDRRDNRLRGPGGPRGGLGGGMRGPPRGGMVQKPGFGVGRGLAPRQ
# Method: RNA Bind-n-Seq
# Molecule type: RNA
# Matrix: in vitro
# Concentration: 1 µM
# Notes: whole 134-nt RNA, ends assumed
# With: 150 mM KCl
# Reference: input library
# Direction: higher = stronger binding
# Shared flanks, not repeated: GGGAGUUCUACAGUCCGACGAUC … UGGAAUUCUCGGGUGUCAAGG
Strand,log2 enrichment
UGGGAGGUGGAUUUUGUUUAUUUUUUUAGCUCAUUUCCAGCGGUGGGAAUUUUUUUUUAAUAUGUGUCAUGAAUAAAGUUGUUUUUGAAA,2.22
CACAGACAACACGCACCCACACAGACACAGAGGGAAGGGGUUGGGAUGGGGACAGGGUGCACAGCAGGGCGGAGUAGGACCCCAGCCCCU,-0.149
UGGGCAAUGUGUCGGCUGCAUGCACGAGCCAGGAACUGCGCAGCCUCUUCGAGCGCCGCGGACGCGUCAUCGAGUGUGACGUGGUGAAAG,-0.486
AGUCCUGUGCUACACAUCGUAUGUACCGAAUCGGGAAAAAGGAAAAAGGAAAAAGGGAAAGUAUUAUGUUACGCCGUUCGGAUCUGCACU,-0.0997
CUGUGCUACACAUCGUAUGUACCGAAUCGGGGCCCCCCCGGGGCCCCCCCGGCCCCCCCGGAAAGUAUUAUGUUACGCCGUUCGGAUCUG,-0.714
GUCCUGUGCUACACAUCGUAUGUACCGAAUCAAACCCCCAAACCCCCAAAUUUUUAAAAAAGUAUUAUGUUACGCCGUUCGGAUCUGCAC,-0.19
UCAAGUCCUGUGCUACACAUCGUAUGUACCGAAUCGGGCCCGGCCCGGCCCGGGGAAAGUAUUAUGUUACGCCGUUCGGAUCUGCACUUC,-0.669
CAAGUCCUGUGCUACACAUCGUAUGUACCGAAUCGGAGGUUUUUUUGGAAAAAGGAAAGUAUUAUGUUACGCCGUUCGGAUCUGCACUUC,-0.229
CUCAAGUCCUGUGCUACACAUCGUAUGUACCGAAUCGGAGGUGGAAAAAAAGGAAAGUAUUAUGUUACGCCGUUCGGAUCUGCACUUCCA,-0.266
GCAGGAAGUAAAAACAAAUGGAAAUGCUUCGGAUAGAAACAGGGGUGGGGGUUGCUAAGGAAAGGGUGGGAUGGGAGUGGGUAAAGAGUU,1.05
UAACUUUAGAGGAGGAUCUGAUGGAUAUGGCAGUGGACGUGGAUUUGGGGAUGGCUAUAAUAGGUAUGGAGGAGGACCUGGAGGUGGCAA,-0.298
AAGUCCUGUGCUACACAUCGUAUGUACCGAAUCGGGGAAAAGGAAAAGGGAAAAGGAAAGUAUUAUGUUACGCCGUUCGGAUCUGCACUU,-0.178
UAGAGACUUCAGAUGGAUUUUAAAAUUGAACACACUUGGGAUGGUUUUCCAGUGAAGCAUGAGCCCGUAUUUAUCAGGCUGAAUCCAGGU,-0.373
UGUGCUACACAUCGUAUGUACCGAAUCGGGAAAAAAAGGGAAAAAAAGGGGAAAAAAAGGGGAAAGUAUUAUGUUACGCCGUUCGGAUCU,0.318
